Published values collected from several papers.
Organism: Pseudomonas aeruginosa

The MIC of `c1ccc(CN2CCOCCOCCN(CCCCCCCCCCN3CCOCCOCCN(CCCCCCCCCCN4CCOCCOCCN(Cc5ccccc5)CCOCCOCC4)CCOCCOCC3)CCOCCOCC2)cc1` is reported as 100 µM (meropenem-resistant).
The MIC of `CC1(C)S[C@@H]2[C@H](NC(=O)[C@H](NC(=O)C3=C(O)C(c4ccccc4F)NC3=O)c3ccccc3)C(=O)N2[C@H]1C(=O)O` (stereo partly shown) is reported as 6.25 µg/mL (broth microdilution; PAO1; together with: clavulanic acid 6 µg/mL).
The MIC of `COc1ccc2ccc3c(c2c1)C=[N+]1C2CCCCC2[N+]2=Cc4ccc(OCCN5CCCCC5)cc4[O][Au-]21[O]3.F[P-](F)(F)(F)(F)F` (stereo not shown) is reported as 10 µM (bacterial growth, broth microdilution; carbapenem-resistant; 24 h).
With `Oc1c(Cl)cc(Cl)c2cccnc12` the MIC was > 1200 µM (microbial growth, agar dilution; ATCC27853).
With `CC(=O)N[C@H](CCCCN)C(=O)N[C@H](CC(C)C)C(=O)N[C@H](CCCCN)C(=O)N[C@H](CO)C(=O)N[C@H](CC(C)C)C(=O)N[C@H](CC(C)C)C(=O)N[C@H](CCCCN)C(=O)N[C@@H](C(=O)N[C@H](CC(C)C)C(=O)N[C@H](CO)C(=O)N[C@H](CCCCN)C(=O)N[C@H](C)C(=O)N[C@H](CCCCN)C(=O)N[C@H](CCCCN)C(=O)N[C@H](CCCCN)C(=O)N[C@H](CCCCN)C(=O)N[C@H](CC(C)C)C(=O)N[C@H](CCCCN)C(=O)N[C@@H](C(=O)N[C@H](CC(C)C)C(=O)N[C@H](CC(C)C)C(=O)N[C@H](CCCCN)C(=O)N[C@H](C)C(=O)N[C@H](CC(C)C)C(=O)N[C@H](CO)C(=O)N[C@H](CCCCN)C(N)=O)[C@H](C)O)[C@H](C)O` the MIC was 1.3 µM (broth microdilution; PAO1; 24 h, 37 °C).
For `N=C(N)NCCC[C@@H]1NC(=O)[C@H](CCCNC(=N)N)NC(=O)[C@H](CCCNC(=N)N)NC(=O)[C@H](Cc2c[nH]c3ccccc23)NC(=O)[C@H](Cc2c[nH]c3ccccc23)NC(=O)[C@H](Cc2c[nH]c3ccccc23)NC(=O)[C@H](Cc2c[nH]c3ccccc23)NC(=O)[C@H](CCCNC(=N)N)NC1=O`, the MIC was 31.3 µM (broth microdilution; PAO1, TSB; overnight).
The MIC of `CC(C)C[C@H](NC(=O)[C@H](CC(N)=O)NC(=O)[C@H](CCCNC(=N)N)NC(=O)[C@@H](CC(C)C)NC(=O)[C@H](Cc1ccccc1)NC(=O)[C@H](CC(=O)O)NC(=O)[C@H](CCCCN)NC(=O)[C@@H](CC(C)C)NC(=O)[C@H](CCCNC(=N)N)NC(=O)[C@H](CCC(N)=O)NC(=O)[C@@H](NC(=O)[C@@H](CC(C)C)NC(=O)[C@H](CCCNC(=N)N)NC(=O)[C@H](CCCCN)NC(=O)[C@H](Cc1ccccc1)NC(=O)CN)C(C)C)C(=O)N[C@H](C(N)=O)C(C)C` is reported as 100 µM (broth microdilution; PAO1).
`COc1ccc2ccc3c(c2c1)C=[N+]1C2CCCCC2[N+]2=Cc4ccc(C)cc4[O][Au-]21[O]3.F[P-](F)(F)(F)(F)F` (stereo not shown) has an MIC of 10 µM (bacterial growth, broth microdilution; carbapenem-resistant clinical isolate; 24 h).
The MIC of `CO[C@@H](C(N)=O)[C@H](NC(=O)c1ccc(NC(=O)c2ccc([N+](=O)[O-])cc2)cc1)C(=O)Nc1ccc(C(=O)Nc2ccc(C(=O)Nc3ccc(C(=O)O)cc3)c(O)c2OC(C)C)cc1` is reported as 4 µg/mL (DSM 24600 ESBL 1).
With `COc1c2c(cc3c1[C@@H]1Oc4c(ccc(O)c4CC=C(C)C)[C@@H]1CO3)OC(C)(C)C=C2` the MIC was 128 µg/mL (ATCC 10145).

Excerpt of the above:
With `COc1c2c(cc3c1[C@@H]1Oc4c(ccc(O)c4CC=C(C)C)[C@@H]1CO3)OC(C)(C)C=C2` the MIC was 128 µg/mL (ATCC 10145).
